Results gathered from unrelated publications.
Parts stem from different laboratories: compare values within a part only. Positions count from the first letter of the parent shown.

Sample 1
Target: CCNB1, cyclin fold, Cln2 fusion (human)
Method: yeast growth competition, sequencing
Matrix: yeast
Notes: strong parent motif
Relative to: not given
Direction: higher = stronger binding
Starting sequence: INSM1 docking peptide (human); PKAIRKLHFEDEV
For `PKAIRKLHFTDEV [E10T]`, “normalised enrichment score” read 1.52.
`PVAIRKLHFEDEV [K2V]`: “normalised enrichment score” 3.
For `PKAIRKRHFEDEV [L7R]`, “normalised enrichment score” read 0.561.
Under “normalised enrichment score”, `PKAIRKLPFEDEV [H8P]` is recorded as 0.516.

Sample 2
Target: RNA binding protein fox-1 homolog 2, RRM domain, GST-SBP tag (RBFOX2, Homo sapiens, UniProt O43251-10, residues 100-194)
Method: RNA Bind-n-Seq
Molecule type: RNA
Matrix: in vitro
Tested at: 365 nM
Notes: natural RNA segment, single round, ends assumed
Relative to: no-protein control
Direction: higher = stronger binding
Constant ends, left off below: GGGAGUUCUACAGUCCGACGAUC … UGGAAUUCUCGGGUGCCAA
Residues (chain): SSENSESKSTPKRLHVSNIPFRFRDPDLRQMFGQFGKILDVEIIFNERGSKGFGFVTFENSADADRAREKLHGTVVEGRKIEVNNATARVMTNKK
Under “RBNS enrichment (R)”, `ACAGAGGUUUCUCCUGGUUUUCCUUGUUUCUACCCAGAGAAUUUCCUACUCCCCUUUCCCUCCAAAUGUUAAGGGUUUUCUCCCAGAACAGUAAUGGGGCUAAAGGGGCA` is recorded as 0.228.
For `CCCAUUCUUGGCCCUGGUCACUAGGGUCCUGGCUAUUCUAGAACUCAGUAAAAUGUAUGUCUAAUGCAACAUUGGCCCUUGUGUAGUACAACUAUUAGCCGUCACAGCUA`, “RBNS enrichment (R)” read 0.388.
For `CAGCACUCACCUGAACUGUGGCUGAUUUGGUCCCAGUCCAGCUGGGGAGGUGUUUGGCUGACAAGGAGGCAAGAGAUCCCCUCCCAGGGAACAGGAGGACUGGGCUUAGC`, “RBNS enrichment (R)” read 0.527.
Under “RBNS enrichment (R)”, `UACUUCACUCUUACCUAGCACGCUGUCUUCUCAUUGCUUUGGGGGAGGGAGGGUCUCUCUGCUGGCACUGUCUAACUUGCUUACCUGCUGACUUUGCAGUUUGCUUGUGC` is recorded as 0.648.
Under “RBNS enrichment (R)”, `UGUAGAAUGAAGUAUAACGUCAGUGAAUGAGAGUCCAAGUUCUUAUCACACGAUAUUAGGUACUAAUUAUACCCUCAUUGCUUUAAAAUACACAUCAGGGUCUCUUUUAA` is recorded as 0.249.
`CUAAUACAGGUAUGUAACAACAAAAGAAGUUGCCUGCAUGCCGGUCCAAAUUGUUCUGUAUAAAGAUGCUCUUAAAAGACACAAGAGUUAUCCUAGAACCUUAAUUCUUU` — result for “RBNS enrichment (R)”: 0.344.
For `CCCAGAGGGCCUGCCUGGUGCCAAGGUAUCCCAGCCUGGACAGGCAUGGACCUGUCUCCAGAGAGAGGAGCCUGAAGUUCGUGGGGCGGGACAGCGUCGGCCUGAUUUCC`, “RBNS enrichment (R)” read 0.442.
`GCGUUAACCUGUUCCCUUCUCUAUCCUUCCCCGUGGUACUGAGCUCACGUGGACUCCCAGUGCGAAGGGGCCCAUGGGUUGGGCUGCAGGCCUGGCCGUGAGCGGGGGCU`: “RBNS enrichment (R)” 0.539.
For `GUUUCUCGGUUUCCCCAGUGCUGAAGACAGCAUUGCCAUCCAAAGAAACUCACAUUUUCUUUAAAGCUAUCACACUUUGUCUUCUUAUCCCCUGCUUCCUGUUCCUUCAG`, “RBNS enrichment (R)” read 0.688.
Under “RBNS enrichment (R)”, `CUUUUCUGUUUGCUAAGUGAGGAUGAAAAAAUAACACUGUACUGCAAUAAGGGGAGAGUAACCCUGUCUAAUGAAACCUGUGUCUCUGAGAGUAGAGUCACUGGAACACU` is recorded as 0.877.
`CUUUUAAAUCUCUUUGAAUCACAUUUGGUAGUGAUUUUGACUUAGUCCAGUAGUCACAUAGCUUUAAUAUCUAGUUCAAAGCUAACCAUAGUAUAAUUGUUAUAUUAAGG` — result for “RBNS enrichment (R)”: 0.544.

Sample 3
Target: Interferon regulatory factor 7, full length, phosphomimetic (IRF7, Homo sapiens, UniProt Q92985, residues 1-503, S101K/S471D/S472D/S475D/S476D/S477D/S483D/S484D/S487D)
Method: protein-binding microarray
Molecule type: double-stranded DNA, one strand shown
Matrix: in vitro
Tested at: 250 nM
Notes: 60-bp whole probe
With: salmon DNA 0.4 mg/ml
Relative to: random background probes
Direction: higher = stronger binding
Constant ends, left off below: GCCTAGCAC … GTCTTGATTCGCTTGACGCTGCTG
Construct (chain): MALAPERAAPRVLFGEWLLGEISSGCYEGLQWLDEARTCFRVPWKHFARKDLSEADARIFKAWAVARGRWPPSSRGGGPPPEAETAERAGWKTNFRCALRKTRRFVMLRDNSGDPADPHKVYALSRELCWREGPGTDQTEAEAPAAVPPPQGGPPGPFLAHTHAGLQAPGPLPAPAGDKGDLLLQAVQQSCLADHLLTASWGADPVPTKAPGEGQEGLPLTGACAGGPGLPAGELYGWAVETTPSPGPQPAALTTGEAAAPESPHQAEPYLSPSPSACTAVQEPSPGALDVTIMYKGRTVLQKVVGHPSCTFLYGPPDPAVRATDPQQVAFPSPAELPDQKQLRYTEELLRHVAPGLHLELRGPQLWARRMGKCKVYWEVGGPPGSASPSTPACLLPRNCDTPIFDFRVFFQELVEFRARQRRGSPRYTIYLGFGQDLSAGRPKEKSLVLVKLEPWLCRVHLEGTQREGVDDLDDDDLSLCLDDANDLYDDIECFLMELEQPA
With `TCAAGTCTTCTCCTCTAACTGTGCTAG` the log fluorescence was 0.0761 z-score.
The log fluorescence of `TTTTTTTTATTTATAAATTAGTGCTAG` is reported as 1.22 z-score.
`GTCGGTTTCGGTTTCGGGACGTGCTAG` gave a log fluorescence of 14.6 z-score.
`TCAACTTTCTGAATGCTACTGTGCTAG` gave a log fluorescence of 0.386 z-score.
`TGAAGACTCTCTTGTCTGGATGTGCTA` has a log fluorescence of -0.529 z-score.
`CACGAACTGGGGTATCGAGACGTGCTA` gave a log fluorescence of -0.613 z-score.
The log fluorescence of `TACGGTTTCCTTATCCTGACGTGCTAG` is reported as 3.25 z-score.
With `GACGATATCAGACGGGAGACGTGCTAG` the log fluorescence was -0.135 z-score.

Single results of other studies
With `PhoQ, residues 284 288 289 292 302 303 AGGLSV` the fold induction was 0.0552 (PhoP, residues 12 14 15 18 19 TQALL (Escherichia coli, UniProt P23836); Sort-seq, refers to: YFP reporter; E. coli; PhoQ-PhoP variant library, with: 10 µM Mg2+; relative to: high Mg2+ state, higher = stronger signaling).

Some of these lines once more (sample 2):
For `CCCAUUCUUGGCCCUGGUCACUAGGGUCCUGGCUAUUCUAGAACUCAGUAAAAUGUAUGUCUAAUGCAACAUUGGCCCUUGUGUAGUACAACUAUUAGCCGUCACAGCUA`, “RBNS enrichment (R)” read 0.388.
For `CCCAGAGGGCCUGCCUGGUGCCAAGGUAUCCCAGCCUGGACAGGCAUGGACCUGUCUCCAGAGAGAGGAGCCUGAAGUUCGUGGGGCGGGACAGCGUCGGCCUGAUUUCC`, “RBNS enrichment (R)” read 0.442.
